# Results gathered from unrelated publications.
# Each line is one published result; not all experiments were run side by side. Several values in a cell are separate wells, animals, samples, runs or records. ± gives the spread as reported. Bridges are numbered along the chain shown (N, C = ends). Where no end group is shown, it is not given here. [ ]: non-standard residue; d: D form.
# T1: B2m/H2-D1 single-chain trimer MHC part (Mus musculus); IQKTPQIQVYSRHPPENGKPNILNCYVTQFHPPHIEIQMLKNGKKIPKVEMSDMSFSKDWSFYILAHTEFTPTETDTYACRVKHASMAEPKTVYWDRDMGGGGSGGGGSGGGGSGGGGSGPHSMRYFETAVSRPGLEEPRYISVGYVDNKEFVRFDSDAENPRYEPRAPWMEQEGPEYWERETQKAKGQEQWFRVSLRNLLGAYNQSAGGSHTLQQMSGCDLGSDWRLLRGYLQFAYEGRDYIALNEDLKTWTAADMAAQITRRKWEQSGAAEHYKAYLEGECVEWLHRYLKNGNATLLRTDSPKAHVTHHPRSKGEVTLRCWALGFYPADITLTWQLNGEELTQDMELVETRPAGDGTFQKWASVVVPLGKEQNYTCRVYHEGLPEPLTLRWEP
# B1: Nudt8 (Mus musculus, UniProt Q9CR24); chain MLPDGLSAEDEQRCRQLLARTTARLRSRPAAAAVLVPLCLVRGVPALLYTLRSSRLVGRHKGEVSFPGGKCDPDDQDVIHTALRETQEELGLEVPKEHVWGVLQPVYDREKATIVPVLANVGPLDLQSLRPNLEEVDEVFEMSLAHLLQTQNQGYTHFCQGGHFSYTLPVFLHGPHRVWGLTAVITELTLKLLAPGFYQPSLAVPELPRG
# B2: enzyme (Vitis vinifera, UniProt F6HSW4); chain MAVDSGLSSPLGPPACEKDAKALQFIEEMTRNPDQVQEKILAEILSQNGETEYLQRFKLAGATDRDTFKSKVPVVTYEDLQPDIQRIANGDRSPILSSHPISEFLTSSGTSAGERKLMPTIHEEWDRRQKLYSLLMPVMNLYVPGLDKGKGLYFLFVKSETKTPSGLVARPVLTGYYRSEHFKKRPYDPYNVYTSPDEAILCVDSFQSMYAQMLCGLLMHKEVLRVGAVFASGLLRAIRFLQVHWQQLAHDISTGILNPKITDPSVREGLAGILKPSQELADFIIQECSGGNWERIITRIWPNTKYLDVIVTGAMAQYIPTLDYFSGGIPLACTMYASSECYFGLNLKPMSKPSEVSYTIMPNMGYFEFLPHDPSAPPLSRDSPPRLVDLADVEVGKEYELVITTYAGLCRYRVGDILQVTGFHNSAPQFQFIRRKNVLLSIDSDKTDEAELQKAVENASLLLREFNTSVVEYTSFADTKTIPGHYVIYWELLVKDPSNSPTDTVLKQCCLAMEESLNTVYRQGRVADNSIGPLEIRVVKSGTFEELMDYAISRGASINQYKVPRCVNFTPIMELLDSRVLSTYFSPAAPHWTPERRRTD
Molecule,tested on,assay,system,conditions,scale,measurement,result
[Aib][Aib]IA (Aib = CC(C)(N)C(=O)O),PC-12,"protection from Aβ1–42 toxicity, MTT",,"concentration not given, 6 h, Aβ to peptide ratio 1:5, together with: Aβ1–42 2 µM",reference: untreated cells,cell viability,75.4%
"PRL (Homo sapiens, UniProt P01236)",,"NMR, refers to: His195",,"35 °C, numbering of the source",,pKa,5.91
Transferrin,human IAPP,thioflavin T fluorescence,,"0.5 µM, pH 8.0, 37 °C, together with: 25 µM hIAPP",,fibrillization delay time,≥ 9 h
TAPDNLGKM (Tyrp1 peptide residues 455-463 Y8K/A9M),"T1, B2m/H2-D1 single-chain trimer MHC part (Mus musculus)",differential scanning fluorimetry,peptide,,,Tm,39.5 °C
GAGUUGAGUUGAGUUGAGUUGAGUUGAGUUGAGUUGAGUUGAGUUGAGUUGAGUU (ssRNA; single strand),"mtrB full length assumed T30I (Bacillus subtilis, UniProt P19466)",filter binding,,together with: L-tryptophan 1 mM,,Kd,110 ± 10 nM
[dI]VIA (D-Ile1),PC-12,"protection from Aβ1–42 toxicity, MTT",,"concentration not given, 6 h, Aβ to peptide ratio 1:1, together with: Aβ1–42 2 µM",reference: untreated cells,cell viability,70%
COc1cccc2c1C(=O)c1c(O)c3c(c(O)c1C2=O)C[C@@](O)(C(=O)CO)C[C@@H]3O[C@H]1C[C@H](NC(=O)[C@@H]2CCCN2C(=O)CN)[C@H](O)[C@H](C)O1,,,"mouse, E0771 tumour-bearing, tumor","intravenous, 92 µmol/kg PhAc-ALGP-Dox",,Tmax,15 min
B1 (Nudt8),CCC(=O)SCCNC(=O)CCNC(=O)[C@H](O)C(C)(C)COP(=O)(O)OP(=O)(O)OC[C@H]1O[C@@H](n2cnc3c(N)ncnc32)[C@H](O)[C@@H]1OP(=O)(O)O,steady-state kinetics,,"pH 8.5, together with: 2 mM Mn2+",,kcat/Km,8170 M⁻¹ s⁻¹
UUUCAGCUCCGGUCACGCUC (ssRNA; m5C at position 10),"SRSF2 1-115 P95H (Homo sapiens, UniProt Q01130)",NanoBRET competition,,"apparent, not purified",,Ki,43.4 nM
B2 (enzyme),O=C(O)Cc1c[nH]c2ccccc12,steady-state kinetics,,"pH 8.6, 25 °C",,kcat/Km,19100 M⁻¹ s⁻¹
Insulin human,,,"rat, dorsal cortex","intranasal, 20 µg per nostril, 120 min",,brain concentration,0 pg/mg tissue
CPSSSREKC (disulfide 1-9 (inferred)) (disulfide),CuFi-1,flow cytometry,nanoparticles after CF sputum permeation,"2 h, 37 °C",reference: unmodified carboxylated nanoparticles,cell uptake,2.6 fold
"UGT1A9 (Homo sapiens, UniProt O60656)",COc1ccc([C@@H]2CC(=O)c3c(O)cc(O)cc3O2)cc1O,steady-state kinetics,,"pH 7.4, 37 °C",,Vmax/Km,407 µL/min/mg and 977 µL/min/mg
CGGQDLKSC (disulfide 1-9 (inferred)) (disulfide),CuFi-1,flow cytometry,nanoparticles after CF sputum permeation,"2 h, 37 °C",reference: 1 kDa mPEG-coated nanoparticles,cell uptake,~3 fold
CC(C)[C@H](NC(=O)[C@@H]1CCCN1C(=O)[C@H](CCCNC(=N)N)NC(=O)[C@H](CS)NC(=O)[C@H](Cc1c[nH]c2ccccc12)NC(=O)[C@H](CCCNC(=N)N)NC(=O)[C@@H](Cc1ccccc1)NC(=O)[C@H](Cc1c[nH]cn1)NC(=O)[C@H](CCC(=O)O)NC(=O)[C@H](CS)NC(=O)[C@H](CS)NC(=O)[C@H](CCCCN)NC(=O)[C@@H]1CC(=O)N[C@@H](CCCNC(=N)N)C(=O)N[C@@H](C)C(=O)N[C@@H](CC(=O)O)C(=O)N[C@H](Cc2ccc(O)cc2)C(=O)N1)C(N)=O [technetium-99m labelled],,,"C57 mice, skin","intravenous, 0.037 MBq, 4 h",,tissue uptake,0.34 ± 0.05 %ID/g
cholecystokinin octapeptide,rat pancreatic acini,,,"0.1 nM, 15 min, together with: 20 µM PKCθ pseudosubstrate inhibitor for 2 h",reference: total,amylase secretion,7.4 ± 0.6%
epidermal growth factor,MDCK monolayer,,,"120 min, pH 7.4, 1% BSA",reference: added tracer,basal-to-apical transport,3.2%

# Excerpt of the above:
Molecule,tested on,assay,system,conditions,scale,measurement,result
UUUCAGCUCCGGUCACGCUC (ssRNA; m5C at position 10),"SRSF2 1-115 P95H (Homo sapiens, UniProt Q01130)",NanoBRET competition,,"apparent, not purified",,Ki,43.4 nM
B2 (enzyme),O=C(O)Cc1c[nH]c2ccccc12,steady-state kinetics,,"pH 8.6, 25 °C",,kcat/Km,19100 M⁻¹ s⁻¹
